Published values collected from several papers.
Parts stem from different laboratories: compare values within a part only. “And” joins repeats or separate records; there may be more than shown.
UniProt P08588, sequence (whole entry, looked up): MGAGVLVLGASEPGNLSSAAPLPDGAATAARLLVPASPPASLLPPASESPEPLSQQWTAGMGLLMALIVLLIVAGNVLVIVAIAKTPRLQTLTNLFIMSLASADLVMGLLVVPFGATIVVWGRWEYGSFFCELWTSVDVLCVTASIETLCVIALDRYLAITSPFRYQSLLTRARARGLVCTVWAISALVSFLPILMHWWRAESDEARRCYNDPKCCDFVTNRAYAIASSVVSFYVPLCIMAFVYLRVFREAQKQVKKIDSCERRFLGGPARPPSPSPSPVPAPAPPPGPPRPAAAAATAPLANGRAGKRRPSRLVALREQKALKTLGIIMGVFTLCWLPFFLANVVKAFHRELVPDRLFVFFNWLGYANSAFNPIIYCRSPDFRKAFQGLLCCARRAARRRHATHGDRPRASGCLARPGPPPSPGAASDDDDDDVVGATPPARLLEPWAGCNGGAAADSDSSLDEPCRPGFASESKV
UniProt P21917, sequence (whole entry, looked up): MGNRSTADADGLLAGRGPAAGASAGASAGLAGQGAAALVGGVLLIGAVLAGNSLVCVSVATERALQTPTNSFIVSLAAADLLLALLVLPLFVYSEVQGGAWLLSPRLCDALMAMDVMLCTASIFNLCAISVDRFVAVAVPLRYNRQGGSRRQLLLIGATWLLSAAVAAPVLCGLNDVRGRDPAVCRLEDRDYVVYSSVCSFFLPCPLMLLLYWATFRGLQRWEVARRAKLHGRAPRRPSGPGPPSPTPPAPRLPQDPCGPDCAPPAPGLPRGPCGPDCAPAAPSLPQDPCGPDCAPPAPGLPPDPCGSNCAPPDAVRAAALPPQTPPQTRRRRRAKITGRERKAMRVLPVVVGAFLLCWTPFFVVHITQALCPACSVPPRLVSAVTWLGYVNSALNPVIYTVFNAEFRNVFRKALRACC
UniProt Q99720, sequence (whole entry, looked up): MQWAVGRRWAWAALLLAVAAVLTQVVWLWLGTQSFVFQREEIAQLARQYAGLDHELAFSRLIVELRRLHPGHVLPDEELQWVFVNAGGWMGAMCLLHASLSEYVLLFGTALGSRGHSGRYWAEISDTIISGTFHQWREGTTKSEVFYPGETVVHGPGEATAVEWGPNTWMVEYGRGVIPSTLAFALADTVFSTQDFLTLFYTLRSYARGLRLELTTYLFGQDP
UniProt Q5BJF2, sequence (whole entry, looked up): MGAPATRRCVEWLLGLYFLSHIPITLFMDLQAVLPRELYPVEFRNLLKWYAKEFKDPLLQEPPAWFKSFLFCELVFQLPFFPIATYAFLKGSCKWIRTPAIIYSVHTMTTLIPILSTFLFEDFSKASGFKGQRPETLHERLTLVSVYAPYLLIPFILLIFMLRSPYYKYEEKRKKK
UniProt P35462, sequence (whole entry, looked up): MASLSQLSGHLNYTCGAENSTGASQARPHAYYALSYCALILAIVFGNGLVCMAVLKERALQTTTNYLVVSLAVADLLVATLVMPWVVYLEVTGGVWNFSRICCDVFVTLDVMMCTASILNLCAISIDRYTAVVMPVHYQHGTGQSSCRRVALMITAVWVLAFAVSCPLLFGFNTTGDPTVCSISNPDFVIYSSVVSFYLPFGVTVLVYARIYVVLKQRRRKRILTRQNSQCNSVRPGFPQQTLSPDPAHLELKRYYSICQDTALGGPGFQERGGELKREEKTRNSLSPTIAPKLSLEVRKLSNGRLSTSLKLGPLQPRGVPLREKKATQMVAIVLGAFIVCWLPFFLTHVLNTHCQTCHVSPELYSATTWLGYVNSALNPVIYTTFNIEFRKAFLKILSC
UniProt P14416, sequence (whole entry, looked up): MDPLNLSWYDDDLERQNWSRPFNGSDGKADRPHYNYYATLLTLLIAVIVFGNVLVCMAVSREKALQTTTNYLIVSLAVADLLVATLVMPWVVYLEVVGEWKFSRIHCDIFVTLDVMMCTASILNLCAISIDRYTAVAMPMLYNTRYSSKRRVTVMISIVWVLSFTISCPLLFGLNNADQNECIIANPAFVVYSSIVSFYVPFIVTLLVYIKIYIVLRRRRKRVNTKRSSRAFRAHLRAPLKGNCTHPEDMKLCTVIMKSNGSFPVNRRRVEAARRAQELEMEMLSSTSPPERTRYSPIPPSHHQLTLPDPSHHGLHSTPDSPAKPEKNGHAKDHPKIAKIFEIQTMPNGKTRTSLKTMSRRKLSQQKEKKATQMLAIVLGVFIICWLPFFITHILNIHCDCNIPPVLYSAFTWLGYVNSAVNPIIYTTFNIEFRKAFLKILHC
UniProt P50406, sequence (whole entry, looked up): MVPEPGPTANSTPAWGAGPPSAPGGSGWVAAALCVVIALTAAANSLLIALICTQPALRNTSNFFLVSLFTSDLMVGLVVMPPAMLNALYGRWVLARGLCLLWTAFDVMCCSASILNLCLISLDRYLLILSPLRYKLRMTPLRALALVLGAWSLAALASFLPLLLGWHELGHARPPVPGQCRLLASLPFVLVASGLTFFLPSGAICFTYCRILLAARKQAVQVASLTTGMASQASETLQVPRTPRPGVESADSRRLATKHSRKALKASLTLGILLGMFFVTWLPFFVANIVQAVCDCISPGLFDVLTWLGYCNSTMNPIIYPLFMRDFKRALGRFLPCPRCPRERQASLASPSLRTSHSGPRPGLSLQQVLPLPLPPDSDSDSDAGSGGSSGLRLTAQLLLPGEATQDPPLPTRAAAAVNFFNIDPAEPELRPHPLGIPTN
UniProt P35348, sequence (whole entry, looked up): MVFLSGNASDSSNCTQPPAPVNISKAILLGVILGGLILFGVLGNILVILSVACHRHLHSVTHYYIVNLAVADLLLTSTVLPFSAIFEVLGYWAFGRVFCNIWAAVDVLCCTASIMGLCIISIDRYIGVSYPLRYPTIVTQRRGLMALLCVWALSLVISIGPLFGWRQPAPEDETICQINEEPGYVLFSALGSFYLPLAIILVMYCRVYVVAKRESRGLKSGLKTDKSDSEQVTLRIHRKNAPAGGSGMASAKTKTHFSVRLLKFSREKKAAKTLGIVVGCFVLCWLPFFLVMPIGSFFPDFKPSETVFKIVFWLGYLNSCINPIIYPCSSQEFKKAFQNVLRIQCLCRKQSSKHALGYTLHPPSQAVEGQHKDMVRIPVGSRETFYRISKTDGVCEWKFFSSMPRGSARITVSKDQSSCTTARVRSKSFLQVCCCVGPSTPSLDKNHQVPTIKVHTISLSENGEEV
UniProt P07550, sequence (whole entry, looked up): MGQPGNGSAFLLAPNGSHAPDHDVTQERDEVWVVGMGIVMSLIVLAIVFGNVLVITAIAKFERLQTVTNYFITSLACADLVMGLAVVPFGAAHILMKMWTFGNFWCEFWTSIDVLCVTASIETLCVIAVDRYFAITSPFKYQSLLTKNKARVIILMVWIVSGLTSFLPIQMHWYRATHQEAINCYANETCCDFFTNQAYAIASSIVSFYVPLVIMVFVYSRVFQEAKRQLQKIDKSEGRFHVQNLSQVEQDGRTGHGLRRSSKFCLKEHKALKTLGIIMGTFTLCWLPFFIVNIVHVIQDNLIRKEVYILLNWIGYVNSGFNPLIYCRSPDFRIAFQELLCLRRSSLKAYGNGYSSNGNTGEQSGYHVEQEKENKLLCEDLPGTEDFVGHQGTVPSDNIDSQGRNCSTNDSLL
UniProt P08912, sequence (whole entry, looked up): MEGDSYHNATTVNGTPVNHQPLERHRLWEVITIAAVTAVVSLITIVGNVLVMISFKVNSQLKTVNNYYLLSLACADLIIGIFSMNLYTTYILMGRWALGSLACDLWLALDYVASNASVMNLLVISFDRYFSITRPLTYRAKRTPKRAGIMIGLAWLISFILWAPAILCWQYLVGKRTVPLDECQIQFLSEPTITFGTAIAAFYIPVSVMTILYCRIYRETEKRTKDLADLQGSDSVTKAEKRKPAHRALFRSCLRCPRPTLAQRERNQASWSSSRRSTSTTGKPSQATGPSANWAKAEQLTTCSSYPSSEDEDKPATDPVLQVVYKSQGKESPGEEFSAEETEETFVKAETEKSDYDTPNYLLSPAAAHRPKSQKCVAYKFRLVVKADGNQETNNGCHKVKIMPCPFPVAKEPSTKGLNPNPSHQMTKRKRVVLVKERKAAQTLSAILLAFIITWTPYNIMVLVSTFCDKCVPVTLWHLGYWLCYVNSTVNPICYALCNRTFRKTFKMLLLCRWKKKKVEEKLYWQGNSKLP
UniProt P08913, sequence (whole entry, looked up): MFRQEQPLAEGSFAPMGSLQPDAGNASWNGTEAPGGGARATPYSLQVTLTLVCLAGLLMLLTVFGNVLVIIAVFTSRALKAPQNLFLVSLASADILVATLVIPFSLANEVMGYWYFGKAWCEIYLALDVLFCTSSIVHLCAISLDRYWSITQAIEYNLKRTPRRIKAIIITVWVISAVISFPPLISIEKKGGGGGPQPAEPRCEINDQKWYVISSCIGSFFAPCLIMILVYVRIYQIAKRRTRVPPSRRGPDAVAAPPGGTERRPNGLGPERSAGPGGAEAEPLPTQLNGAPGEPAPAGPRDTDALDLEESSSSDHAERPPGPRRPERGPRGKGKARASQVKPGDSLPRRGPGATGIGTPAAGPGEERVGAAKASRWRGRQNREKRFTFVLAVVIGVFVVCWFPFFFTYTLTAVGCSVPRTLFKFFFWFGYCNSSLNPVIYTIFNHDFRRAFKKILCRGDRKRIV

Series 1
Cell line: mouse MPNST tumor cells
Method: high-content immunofluorescence imaging
Item: nuclear SOX9
Tested at: 10 µM
Time: 12 h
Setting: mean of 2 replicates
Reference: DMSO control
Reading: higher = more nuclear SOX9
Endpoint: nuclear SOX9 intensity
CCOc1ccccc1C(N)=O: 104 % of DMSO
C[C@H](CCC(=O)O)[C@H]1CC[C@H]2[C@@H]3CC[C@@H]4C[C@H](O)CC[C@]4(C)[C@H]3CC[C@]12C: 103 % of DMSO
CCc1cccc(N(C)C(=N)Nc2cccc3ccccc23)c1: 162 % of DMSO
O=C(Nc1cnc(Cl)nc1)c1ccc(F)c(F)c1: 102 % of DMSO
CCOc1c2c(c(OCC)c3ccccc13)C(=O)N(c1ccc(CC(=O)NS(=O)(=O)c3ccccc3)cc1)C2: 98.5 % of DMSO
O=C(C1CC1)N1CC[C@@H](Cc2n[nH]c(=O)n2-c2ccc(-c3ccc4occc4c3)cc2)C1: 84.9 % of DMSO
CC(C(=O)O)c1ccc(-c2ccccc2)c(F)c1 (centres unmarked): 95.1 % of DMSO and 95.4 % of DMSO
O=C(NC12CC3CC(CC(C3)C1)C2)c1cnc2ccccc2n1: 112 % of DMSO

Series 2
SMILES: CCS(=O)(=O)c1cc2cc(C[C@@](O)(CC(C)(C)c3ccc(F)cc3C(N)=O)C(F)(F)F)[nH]c2cn1
Read-out: binding
Method: radioligand binding
Tested at: 10 µM
Endpoint: inhibition
Beta-1 adrenergic receptor (ADRB1, Homo sapiens, UniProt P08588): -8.85%
Sigma non-opioid intracellular receptor 1 (SIGMAR1, Homo sapiens, UniProt Q99720): 8.26%
D(4) dopamine receptor (DRD4, Homo sapiens, UniProt P21917): 5.32%
D(3) dopamine receptor (DRD3, Homo sapiens, UniProt P35462): 1.8%
5-hydroxytryptamine receptor 6 (HTR6, Homo sapiens, UniProt P50406): -3.13%
Sigma intracellular receptor 2 (TMEM97, Homo sapiens, UniProt Q5BJF2): -13%
Beta-2 adrenergic receptor (ADRB2, Homo sapiens, UniProt P07550): 15.2%
Alpha-1A adrenergic receptor (ADRA1A, Homo sapiens, UniProt P35348): -10.1%
Alpha-2A adrenergic receptor (ADRA2A, Homo sapiens, UniProt P08913): -5.76%
D(2) dopamine receptor (DRD2, Homo sapiens, UniProt P14416): -8.41%
Muscarinic acetylcholine receptor M5 (CHRM5, Homo sapiens, UniProt P08912): -0.62%

Series 3
Organism: Sarcocystis neurona
Read-out: parasite growth
Tested at: 10 µM
Setting: second screen
Reference: untreated
Endpoint: log2 fold change
CC1CCN(CCCC(=O)c2ccc(F)cc2)CC1.Cl: 0.42
COc1cc(N)c(Cl)cc1C(=O)NC1CCN(CCCOc2ccc(F)cc2)CC1OC.O (centres unmarked): 0.29
Br.O=C1CC2(CCCC2)CC(=O)N1CCNCC1COc2ccccc2O1 (centres unmarked): -0.56
C[C@]12CCC(=O)C=C1CC[C@@H]1[C@@H]2C(=O)C[C@@]2(C)[C@H]1CC[C@]2(O)C(=O)CO: -0.0535

Series 4
Species: human
Medium: microsomes or S9
Tested at: 2 µM
Time: 0.5 h
Endpoint: remaining compound
CC(CC(=O)c1ccc2ccccc2c1)n1nnc(-c2ccccc2)n1 (centres unmarked): 3.16%
Cc1c(C)n(CCN2CCOCC2)c2ncn3nc(-c4ccc(Cl)cc4Cl)nc3c12: > 100%
CC1(C)CC(S(=O)(=O)CC2(C)CC(c3ccc(Br)o3)=NO2)=NO1 (centres unmarked): > 99%
O=C(NCc1ccccc1)c1ccc(CN(c2ccccc2)S(=O)(=O)c2ccccc2)cc1: 29%
COc1ccc(Nc2nnc(-c3ccc(C)c(S(=O)(=O)N4CCCCC4)c3)c3ccccc23)cc1C(N)=O: 0.163%
CC1CCN(Cc2nc(N)nc(Nc3ccc(Cl)cc3)n2)CC1: 83.9%
Cc1cc(C)n(-c2nc(CCNC(=O)CCn3ccc(=O)[nH]c3=O)cs2)n1: > 99%
CC(C)n1cc(S(=O)(=O)N2CC(C(=O)O)c3ccccc32)cn1 (centres unmarked): 69.4%
CCN(CC)CCCNc1nc(-n2nc(C)cc2C)nc2sc3c(c12)CC(C)(C)OC3: 46.5%

Some of these lines once more (series 4):
CC1(C)CC(S(=O)(=O)CC2(C)CC(c3ccc(Br)o3)=NO2)=NO1 (centres unmarked): > 99%
CC(C)n1cc(S(=O)(=O)N2CC(C(=O)O)c3ccccc32)cn1 (centres unmarked): 69.4%
COc1ccc(Nc2nnc(-c3ccc(C)c(S(=O)(=O)N4CCCCC4)c3)c3ccccc23)cc1C(N)=O: 0.163%
CC(CC(=O)c1ccc2ccccc2c1)n1nnc(-c2ccccc2)n1 (centres unmarked): 3.16%
CCN(CC)CCCNc1nc(-n2nc(C)cc2C)nc2sc3c(c12)CC(C)(C)OC3: 46.5%
